Measured values collected from several papers.
Lines come from different studies, so protocols differ. “And” joins repeats or separate records; there may be more than shown.
Target: Serine/threonine-protein kinase Nek2 (NEK2, Homo sapiens, UniProt P51955)

Cc1cccc(-c2ccc3nc(NC(=O)C4CCCO4)nn3c2)c1 (centres unmarked) gave a remaining activity of 89% (enzyme activity, Dundee kinase panel; 10 µM).
COc1cc(Nc2nccc(-c3cnn4nc(OC)ccc34)n2)cc(C(F)(F)F)c1 gave a remaining binding of 100% (binding, competition with immobilised ligand; 1 µM).
C=CC(=O)N1CCCC(n2c(=O)c3ncccc3n(Cc3ccc(Oc4ccccc4)cc3)c2=O)C1 (centres unmarked) gave a remaining binding of 100% (cell-free assay, competition with immobilised ligand; 1 µM).
For CNC1C[S+]2CC[S+]3CC[S+](C1)[Ru-4]321([N]=C=S)[n]2c3ccc(OC)cc3c3c4c(c5cc(F)c[n+]1c5c32)C(=O)NC4=O (centres unmarked), the remaining binding was 100% (KinomeScan; 0.1 µM; reference: untreated).
CNC(=O)C[C@H](Cc1ccc(C#N)cc1)NC(=O)c1cc(-c2ccc(CN[C@H](C)c3ccc(C)cc3)o2)ccc1Cl — result for “activity vs control”: 122% (enzyme activity, inhibitor; 1 µM).
Cc1cccc(O[C@H]2CCC[C@@H](C(C)CNCc3ccncc3)C2)c1 (relative stereo) has an inhibition of -7% (enzyme activity, inhibitor; 10 µM).
Cc1ccc(-c2c(/C=C(\C#N)C(=O)NC(C)C)n(CCCO)c3ncnc(N)c23)cc1 has a remaining binding of 71% (cell-free assay, competition with immobilised ligand; 1 µM).
For NC(=O)[C@@H](O)C[C@H]1CCc2sc3ncnc(O[C@H]4CC[C@H](N5CCOCC5)CC4)c3c21, the inhibition was 0% (enzyme activity, inhibitor; 10 µM).
COc1c(OCCCN2CCOCC2)ccc2c1N=C(NC(=O)c1cnc(N)nc1)N1CCN=C21 has a remaining activity of 107% (kinase activity, inhibitor; 1 µM; reference: untreated control).
COCC12C(=O)NC3C4(C(OC)CC1O)C1CC5(O)C(OC)C(O)C(OC(C)=O)(C1C5OC(=O)c1ccccc1)C3(O)C(OC)C24 (centres unmarked) has a remaining activity of 101% (kinase activity, inhibitor, ProQinase kinase profiling; 25 µM; reference: control).
For COc1ccc(O)cc1-c1c[nH]c2ncc(-c3cncc(C(=O)N(C)C)c3)cc12, the inhibition was -11.9% (binding, competition with immobilised ligand; 0.2 µM).
CNC(=O)C1CCN(c2cc(C)c(F)cc2NC(=O)c2ccc(-c3cc(O)ccc3C)c(C)c2)CC1 has a remaining binding of 97% (binding, competition with immobilised ligand; 1 µM).
Under “log2 LFQ intensity”, N[C@H]1CC[C@H](Nc2nccc(-c3cccnc3Oc3ccc(NC(=O)NC4CC4)c4ccccc34)n2)CC1 is recorded as 19.5 and 20.8 and 20.9 and 20.3 (kinobead competition pulldown; HEK293/HCT116 lysate mixture; 10 µM, 1 h, 4 °C; lower = stronger competition).
With C=CC(=O)N1Cc2nc(-c3cc(-c4cc(Cl)cnc4Cl)c(F)cc3F)n(-c3ccncn3)c2C1 the inhibition was -1.5% (cell-free assay, inhibitor; 1 µM).
For Nc1ncc2c(n1)-c1c([nH]c3ccc(C4=CCOCC4)cc13)CCC2, the remaining binding was 100% (binding, competition with immobilised ligand; 1 µM).
For Nc1ncc(-c2cc(-c3cnn(CC(F)(F)F)c3)ncc2F)nc1C(=O)NC1CNCC(F)C1 (centres unmarked), the remaining activity was 100% (enzyme activity; 1 µM; reference: DMSO control).
The inhibition of C=CC(=O)Nc1cc(-c2nn(C3CCN(CCNC(=O)[C@H](C)CCC45CC6CC(CC(C6)C4)C5)CC3)c3ncnc(N)c23)ccc1Oc1ccccc1 is reported as 3.1% (inhibitor, KiNativ profiling; biochemical; 2 µM).
For C=CC(=O)Nc1cccc(-c2cnc3[nH]cc(C(=O)NC(C)(C)C)c3n2)c1, the inhibition was 14% (enzyme activity, inhibitor; 0.1 µM).
The remaining activity of COc1ccc(NC(=O)Nc2ccc3c(c2)C(=O)N(C(C)CO)CC(C)C(CN(C)Cc2ccc4c(c2)OCO4)O3)cc1 (centres unmarked) is reported as 109% (kinase activity, KinaseProfiler; 0.03 µM, species human; reference: control).
With O=c1c(-c2ccc(Cl)c(CN3CCOCC3)c2)coc2cc(O)ccc12 the remaining activity was 81% (enzyme activity, inhibitor; 1 µM).
Cc1cnc2nc1Nc1cccc(c1)COC/C=C/COCc1cc(ccc1OCCN1CCOCC1)N2 gave a remaining binding of 91% (binding; 0.1 µM).
The remaining activity of Cc1cccc(-c2ccc3nc(NC(=O)C4CCOCC4)nn3c2)c1 is reported as 83% (enzyme activity, Dundee kinase panel; 10 µM).
The inhibition of COc1ccc(C(=O)/C=C/c2ccccc2-c2c[nH]c3ccc(C#N)cc23)c(O)c1 is reported as 0% (enzyme activity, inhibitor; 20 µM).
